Assay results of several laboratories.
A part holds a random share of what one study measured. Several values in a cell are separate wells, animals, samples, runs or records. ± marks the error that the study gave.
Chain of UniProt P10635 (whole entry, looked up): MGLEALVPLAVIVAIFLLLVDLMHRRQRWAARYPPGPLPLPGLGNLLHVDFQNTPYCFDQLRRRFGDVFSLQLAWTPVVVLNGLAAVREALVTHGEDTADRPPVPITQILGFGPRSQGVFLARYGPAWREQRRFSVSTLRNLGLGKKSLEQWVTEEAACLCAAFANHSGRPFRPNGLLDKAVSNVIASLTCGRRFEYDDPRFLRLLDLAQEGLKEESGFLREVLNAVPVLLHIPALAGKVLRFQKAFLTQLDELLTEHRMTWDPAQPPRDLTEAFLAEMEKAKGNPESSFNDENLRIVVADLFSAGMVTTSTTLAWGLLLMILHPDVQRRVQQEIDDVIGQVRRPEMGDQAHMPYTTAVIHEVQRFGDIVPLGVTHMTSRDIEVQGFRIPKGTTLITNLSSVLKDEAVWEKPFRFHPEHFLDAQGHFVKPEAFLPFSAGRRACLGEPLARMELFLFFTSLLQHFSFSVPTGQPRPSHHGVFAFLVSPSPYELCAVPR
Chain of UniProt Q9Y2H9 (whole entry, looked up): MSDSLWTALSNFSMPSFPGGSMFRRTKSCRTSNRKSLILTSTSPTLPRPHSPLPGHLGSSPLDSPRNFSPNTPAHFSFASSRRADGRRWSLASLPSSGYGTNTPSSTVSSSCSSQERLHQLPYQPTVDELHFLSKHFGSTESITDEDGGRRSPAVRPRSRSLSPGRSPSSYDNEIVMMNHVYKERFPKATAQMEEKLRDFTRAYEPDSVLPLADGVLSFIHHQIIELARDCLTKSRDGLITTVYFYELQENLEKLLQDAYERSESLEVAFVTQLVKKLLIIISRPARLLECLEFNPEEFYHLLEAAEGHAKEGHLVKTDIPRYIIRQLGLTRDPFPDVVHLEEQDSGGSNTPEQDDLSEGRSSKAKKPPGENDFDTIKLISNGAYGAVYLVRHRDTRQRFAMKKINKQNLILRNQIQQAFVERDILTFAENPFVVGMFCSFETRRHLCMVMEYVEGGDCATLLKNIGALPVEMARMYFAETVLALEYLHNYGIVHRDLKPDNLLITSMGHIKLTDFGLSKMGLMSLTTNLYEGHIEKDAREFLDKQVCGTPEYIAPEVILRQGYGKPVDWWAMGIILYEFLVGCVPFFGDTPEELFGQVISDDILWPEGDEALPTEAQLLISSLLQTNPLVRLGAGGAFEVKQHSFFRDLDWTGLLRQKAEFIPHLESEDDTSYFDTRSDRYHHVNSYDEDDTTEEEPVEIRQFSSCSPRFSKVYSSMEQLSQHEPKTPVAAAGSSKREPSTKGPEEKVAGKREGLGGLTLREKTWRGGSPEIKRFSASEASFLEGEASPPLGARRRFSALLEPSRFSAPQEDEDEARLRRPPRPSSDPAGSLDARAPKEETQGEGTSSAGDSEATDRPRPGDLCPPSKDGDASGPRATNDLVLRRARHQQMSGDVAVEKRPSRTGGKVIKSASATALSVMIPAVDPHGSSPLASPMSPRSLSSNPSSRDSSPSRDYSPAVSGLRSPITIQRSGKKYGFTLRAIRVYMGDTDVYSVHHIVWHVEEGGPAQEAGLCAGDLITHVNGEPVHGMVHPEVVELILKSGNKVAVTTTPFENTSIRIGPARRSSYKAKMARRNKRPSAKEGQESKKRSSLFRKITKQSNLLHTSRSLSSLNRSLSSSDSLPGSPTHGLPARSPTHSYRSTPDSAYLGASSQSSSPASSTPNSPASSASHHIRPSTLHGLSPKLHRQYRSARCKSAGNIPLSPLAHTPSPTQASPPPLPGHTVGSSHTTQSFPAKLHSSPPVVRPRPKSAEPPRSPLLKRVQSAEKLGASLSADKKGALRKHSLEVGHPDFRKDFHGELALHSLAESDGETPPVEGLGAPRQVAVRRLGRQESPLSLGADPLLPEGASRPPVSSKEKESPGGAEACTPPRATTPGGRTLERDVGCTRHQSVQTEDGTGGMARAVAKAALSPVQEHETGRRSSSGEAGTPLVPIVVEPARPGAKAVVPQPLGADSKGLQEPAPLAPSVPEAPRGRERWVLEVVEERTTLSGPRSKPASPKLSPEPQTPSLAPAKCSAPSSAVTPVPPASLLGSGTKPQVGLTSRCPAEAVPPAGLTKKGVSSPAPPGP
Chain of UniProt Q96RR4 (whole entry, looked up): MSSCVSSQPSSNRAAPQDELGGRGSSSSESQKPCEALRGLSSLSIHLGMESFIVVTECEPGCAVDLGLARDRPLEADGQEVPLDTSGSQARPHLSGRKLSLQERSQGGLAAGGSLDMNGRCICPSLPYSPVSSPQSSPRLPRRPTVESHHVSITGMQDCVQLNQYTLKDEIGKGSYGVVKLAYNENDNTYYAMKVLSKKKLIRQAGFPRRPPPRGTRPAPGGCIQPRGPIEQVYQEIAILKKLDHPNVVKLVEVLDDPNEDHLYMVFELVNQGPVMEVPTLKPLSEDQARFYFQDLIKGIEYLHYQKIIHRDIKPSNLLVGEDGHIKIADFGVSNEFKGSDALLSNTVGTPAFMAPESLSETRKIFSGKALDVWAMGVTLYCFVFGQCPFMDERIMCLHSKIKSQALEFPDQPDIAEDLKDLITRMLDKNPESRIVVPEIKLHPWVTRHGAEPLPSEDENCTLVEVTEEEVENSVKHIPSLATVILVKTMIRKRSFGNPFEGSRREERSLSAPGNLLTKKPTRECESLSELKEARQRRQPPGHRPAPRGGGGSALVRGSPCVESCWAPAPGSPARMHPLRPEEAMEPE
Chain of UniProt Q9BYT3 (whole entry, looked up): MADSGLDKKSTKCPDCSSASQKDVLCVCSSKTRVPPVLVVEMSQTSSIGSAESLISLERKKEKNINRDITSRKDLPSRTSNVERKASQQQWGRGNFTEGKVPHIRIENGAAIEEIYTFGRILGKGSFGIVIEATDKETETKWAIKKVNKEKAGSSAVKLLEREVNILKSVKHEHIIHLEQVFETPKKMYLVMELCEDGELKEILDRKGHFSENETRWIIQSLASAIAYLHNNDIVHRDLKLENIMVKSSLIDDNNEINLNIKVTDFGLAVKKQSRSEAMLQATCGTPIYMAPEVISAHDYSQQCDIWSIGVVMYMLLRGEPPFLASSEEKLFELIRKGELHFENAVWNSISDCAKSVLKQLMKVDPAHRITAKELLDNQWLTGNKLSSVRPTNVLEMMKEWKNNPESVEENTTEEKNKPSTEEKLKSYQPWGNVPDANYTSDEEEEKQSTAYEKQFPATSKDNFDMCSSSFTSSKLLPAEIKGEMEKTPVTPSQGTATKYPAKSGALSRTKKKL

Set 1
SMILES: O=C(Nc1ccccc1)Nc1cccc(Oc2ccc3nccn3n2)c1
Observed: binding
Tested at: 1 µM
cGMP-dependent protein kinase 1 (PRKG1, Homo sapiens, UniProt Q13976) — remaining binding: 96%.
Serine/threonine-protein kinase 33 (STK33, Homo sapiens, UniProt Q9BYT3); competition with immobilised ligand — remaining binding: 99%.
Casein kinase I isoform epsilon (CSNK1E, Homo sapiens, UniProt P49674); competition with immobilised ligand — remaining binding: 100%.
It gave 98% for remaining binding (Phosphatidylinositol 4,5-bisphosphate 3-kinase catalytic subunit alpha isoform (PIK3CA, Homo sapiens, UniProt P42336, H1047Y)).
Calcium/calmodulin-dependent protein kinase kinase 2 (CAMKK2, Homo sapiens, UniProt Q96RR4) — remaining binding: 100%.
The remaining binding was 100% (Microtubule-associated serine/threonine-protein kinase 1 (MAST1, Homo sapiens, UniProt Q9Y2H9)).
The remaining binding was 93% (TRAF2 and NCK-interacting protein kinase (TNIK, Homo sapiens, UniProt Q9UKE5); competition with immobilised ligand).
It gave 77% for remaining binding (G protein-coupled receptor kinase 4 (GRK4, Homo sapiens, UniProt P32298)).

Set 2
Structure (SMILES): Cn1cc(-c2cccc(CN3CCC4(CC3)COc3c4ccc4c3CN([C@H]3CCC(=O)NC3=O)C4=O)c2)cn1
Observed: enzyme activity
Matrix: human liver microsomes
Reference: negative control
CYP3A4: Cytochrome P450 3A4 (CYP3A4, Homo sapiens, UniProt P08684)
Chain of UniProt P08684 (whole entry, looked up): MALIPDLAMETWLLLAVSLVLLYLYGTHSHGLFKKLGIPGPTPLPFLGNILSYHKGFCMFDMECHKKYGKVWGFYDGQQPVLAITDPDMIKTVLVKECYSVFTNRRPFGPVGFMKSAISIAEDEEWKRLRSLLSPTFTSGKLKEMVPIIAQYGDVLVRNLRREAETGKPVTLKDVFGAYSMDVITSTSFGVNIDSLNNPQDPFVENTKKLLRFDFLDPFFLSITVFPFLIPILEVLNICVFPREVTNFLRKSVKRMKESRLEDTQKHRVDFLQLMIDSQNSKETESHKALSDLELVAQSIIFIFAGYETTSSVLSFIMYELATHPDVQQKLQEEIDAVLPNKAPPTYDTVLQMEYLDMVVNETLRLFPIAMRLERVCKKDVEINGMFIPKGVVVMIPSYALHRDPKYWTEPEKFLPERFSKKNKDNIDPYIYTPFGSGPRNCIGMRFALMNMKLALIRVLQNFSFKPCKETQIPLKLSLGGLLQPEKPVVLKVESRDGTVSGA
CYP2C8: Cytochrome P450 2C8 (CYP2C8, Homo sapiens, UniProt P10632)
Chain of UniProt P10632 (whole entry, looked up): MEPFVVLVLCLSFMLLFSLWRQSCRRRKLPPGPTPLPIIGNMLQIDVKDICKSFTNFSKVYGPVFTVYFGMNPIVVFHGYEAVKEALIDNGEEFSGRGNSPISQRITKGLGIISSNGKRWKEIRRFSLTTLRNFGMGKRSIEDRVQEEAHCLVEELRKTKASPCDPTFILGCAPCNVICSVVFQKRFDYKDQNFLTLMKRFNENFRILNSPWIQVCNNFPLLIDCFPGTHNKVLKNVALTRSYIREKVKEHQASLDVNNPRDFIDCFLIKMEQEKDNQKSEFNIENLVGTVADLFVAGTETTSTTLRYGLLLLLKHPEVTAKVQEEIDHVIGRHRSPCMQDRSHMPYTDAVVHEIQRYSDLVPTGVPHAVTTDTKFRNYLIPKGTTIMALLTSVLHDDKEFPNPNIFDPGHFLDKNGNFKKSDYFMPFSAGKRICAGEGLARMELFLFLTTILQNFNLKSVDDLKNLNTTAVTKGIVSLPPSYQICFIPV
CYP1A2: Cytochrome P450 1A2 (CYP1A2, Homo sapiens, UniProt P05177)
Chain of UniProt P05177 (whole entry, looked up): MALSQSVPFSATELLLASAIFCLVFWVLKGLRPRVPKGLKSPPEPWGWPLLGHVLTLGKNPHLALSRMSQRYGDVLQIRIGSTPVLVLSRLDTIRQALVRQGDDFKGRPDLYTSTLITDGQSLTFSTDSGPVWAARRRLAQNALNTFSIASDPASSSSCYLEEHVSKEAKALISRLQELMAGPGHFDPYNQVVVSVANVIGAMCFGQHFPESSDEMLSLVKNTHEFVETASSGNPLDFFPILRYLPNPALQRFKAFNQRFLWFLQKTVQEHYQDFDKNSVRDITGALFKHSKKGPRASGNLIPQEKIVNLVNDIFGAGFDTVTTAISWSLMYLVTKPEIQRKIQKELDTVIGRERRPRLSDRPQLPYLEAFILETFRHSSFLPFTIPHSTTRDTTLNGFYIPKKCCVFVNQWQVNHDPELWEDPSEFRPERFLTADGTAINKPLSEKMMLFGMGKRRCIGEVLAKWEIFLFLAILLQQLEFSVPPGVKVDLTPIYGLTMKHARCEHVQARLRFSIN
Cytochrome P450 2B6 (CYP2B6, Homo sapiens, UniProt P20813); 1.11 µM — remaining activity: 89%.
It gave 91.3% for remaining activity (CYP3A4; 0.37 µM, together with: testosterone substrate).
The remaining activity was 103% (Cytochrome P450 2D6 (CYP2D6, Homo sapiens, UniProt P10635); 0.37 µM).
For CYP2C8; 0.04 µM: remaining activity read 104%.
It gave 89.5% for remaining activity (CYP1A2; 3.33 µM).
It gave 88.9% for remaining activity (CYP1A2; 0.04 µM).
The remaining activity was 103% (CYP2C8; 0.12 µM).
CYP1A2; 0.0137 µM — remaining activity: 91.6%.
It gave 106% for remaining activity (CYP2C8; 0.0137 µM).
It gave 102% for remaining activity (CYP3A4; 0.04 µM, together with: midazolam substrate).

Single results of other studies
`CCOC(=O)/C=C/CNCCCCN1c2cc(Cl)ccc2CCc2cnn(C)c21.O=C(O)/C=C\C(=O)O` gave an intrinsic clearance of 420 ± 28.3 µL/min/mg protein (human liver microsomes; 1 µM).
For `Cc1nc(C)c(C=[N+]([O-])C(C)(C)C)nc1C`, the pSer9-GSK3β/total GSK3β was 133 and 113 and 196 and 102 (Western blot; MPTP mouse model; 10 mg/kg).
`Cn1ncc2c1N(CCCCNC/C=C/C#N)c1cc(Cl)ccc1CC2.O=C(O)/C=C\C(=O)O` has an intrinsic clearance of 125 ± 4.6 µL/min/mg protein (mouse liver microsomes; 1 µM).
With `COC(=O)CCCNCCCN1c2ccccc2CCc2ccc(Cl)cc21.COC(=O)CCCNCCCN1c2ccccc2CCc2ccc(Cl)cc21.O=C(O)/C=C/C(=O)O` the inhibition was 15.3% (E3 ubiquitin-protein ligase NEDD4 (Homo sapiens, UniProt P46934); enzyme activity, inhibitor, TR-FRET; 11 µM).
With `CCONC(=O)/C=C/CNCCCCN1c2cc(Cl)ccc2CCc2cnn(C)c21.O=C(O)/C=C\C(=O)O` the intrinsic clearance was 65.9 ± 8.4 µL/min/mg protein (mouse liver microsomes; 1 µM).

Some of these lines once more (set 2):
It gave 106% for remaining activity (CYP2C8; 0.0137 µM).
It gave 102% for remaining activity (CYP3A4; 0.04 µM, together with: midazolam substrate).
